# Assay results of several laboratories.
# Each line is one published result; not all experiments were run side by side. ± gives the spread as reported.
Structure (SMILES),tested at,time,DPPH radical scavenging [%]
Cc1ccc(NC(=O)C2C(=O)C(c3ccccc3)c3ccc4c(c32)C(=O)c2ccccc2C4=O)cc1 (stereo not shown),100 µg/mL,,39.1
Cc1csc(NC(=O)CN2CCC(O)CC2)n1,0.2 M,1 h,18.1
Cc1cc(O)cc2c1C(=O)c1c(cc3oc(=O)cc(-c4ccc(O)cc4)c3c1O)C2=O,100 µg/mL,,50.7
CCCCCCCCCCCCCCc1sc(NC(=O)CCN2CCC(O)CC2)nc1-c1ccccc1,0.2 M,1 h,16.1
Cc1ccc(-c2nn(-c3ccccc3)cc2/C=C(\C#N)c2nc3ccccc3[nH]2)cc1,100 µg/mL,45 min,46.5 ± 1.23
O=C(CCN1CCC(O)CC1)Nc1nc(-c2ccccc2)cs1,0.1 mM,1 h,25.1
N#C/C(=C\c1cn(-c2ccccc2)nc1-c1ccc([N+](=O)[O-])cc1)c1nc2ccccc2[nH]1,100 µg/mL,45 min,53.2 ± 0.98
Cc1c2c(cc3oc(=O)cc(-c4ccc(O)cc4)c13)C(=O)c1cccc(O)c1C2=O,100 µg/mL,,49.3
O=C(O)[C@H]1O[C@@H](Oc2c(-c3ccc(O)c(O)c3)oc3cc(O)cc(O)c3c2=O)[C@H](O)[C@@H](O)[C@@H]1O,100 µg/mL,,82.9 ± 4.3
N#C/C(=C\c1cn(-c2ccccc2)nc1-c1ccc(Cl)cc1)c1nc2ccccc2[nH]1,100 µg/mL,45 min,52.5 ± 1.87
CCOC(=O)Cc1csc(NC(=O)CCN2CCC(O)CC2)n1,0.1 mM,20 min,13.3
N#C/C(=C\c1cn(-c2ccccc2)nc1-c1cccc(Cl)c1)c1nc2ccccc2[nH]1,100 µg/mL,45 min,52.8 ± 1.94
CCCCSc1nnc(-c2ccc(N)cc2)o1,2 × IC50,,77.4

# Repeated from above:
Structure (SMILES),tested at,time,DPPH radical scavenging [%]
Cc1cc(O)cc2c1C(=O)c1c(cc3oc(=O)cc(-c4ccc(O)cc4)c3c1O)C2=O,100 µg/mL,,50.7
CCCCCCCCCCCCCCc1sc(NC(=O)CCN2CCC(O)CC2)nc1-c1ccccc1,0.2 M,1 h,16.1
